# Measured values of several laboratories.
# Lines come from different studies, so protocols differ. “And” joins repeats or separate records; there may be more than shown. ± marks the error that the study gave.
# Sequence of UniProt Q8BLF1 (whole entry, looked up): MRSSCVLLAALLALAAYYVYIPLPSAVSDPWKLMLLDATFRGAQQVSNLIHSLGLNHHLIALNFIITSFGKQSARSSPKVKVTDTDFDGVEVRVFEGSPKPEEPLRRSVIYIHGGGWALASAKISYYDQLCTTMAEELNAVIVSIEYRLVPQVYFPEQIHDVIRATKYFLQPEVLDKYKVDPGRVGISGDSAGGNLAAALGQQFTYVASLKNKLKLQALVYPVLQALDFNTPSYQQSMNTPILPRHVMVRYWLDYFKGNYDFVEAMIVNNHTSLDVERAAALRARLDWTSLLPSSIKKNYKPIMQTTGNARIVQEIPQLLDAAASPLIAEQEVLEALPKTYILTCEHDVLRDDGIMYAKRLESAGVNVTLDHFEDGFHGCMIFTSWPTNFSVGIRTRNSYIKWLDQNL
# Sequence of UniProt Q9UH17 (whole entry, looked up): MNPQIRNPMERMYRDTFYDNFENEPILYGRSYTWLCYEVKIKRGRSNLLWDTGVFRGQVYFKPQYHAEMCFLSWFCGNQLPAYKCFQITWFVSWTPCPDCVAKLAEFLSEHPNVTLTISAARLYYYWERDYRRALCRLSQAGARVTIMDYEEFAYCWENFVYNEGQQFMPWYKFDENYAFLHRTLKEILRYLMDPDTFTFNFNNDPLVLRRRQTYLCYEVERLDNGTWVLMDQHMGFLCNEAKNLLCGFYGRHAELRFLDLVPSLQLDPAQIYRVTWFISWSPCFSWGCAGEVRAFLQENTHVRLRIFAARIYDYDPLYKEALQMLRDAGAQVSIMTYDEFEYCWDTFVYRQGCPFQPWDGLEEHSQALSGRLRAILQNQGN
# Sequence of UniProt Q9UM07 (whole entry, looked up): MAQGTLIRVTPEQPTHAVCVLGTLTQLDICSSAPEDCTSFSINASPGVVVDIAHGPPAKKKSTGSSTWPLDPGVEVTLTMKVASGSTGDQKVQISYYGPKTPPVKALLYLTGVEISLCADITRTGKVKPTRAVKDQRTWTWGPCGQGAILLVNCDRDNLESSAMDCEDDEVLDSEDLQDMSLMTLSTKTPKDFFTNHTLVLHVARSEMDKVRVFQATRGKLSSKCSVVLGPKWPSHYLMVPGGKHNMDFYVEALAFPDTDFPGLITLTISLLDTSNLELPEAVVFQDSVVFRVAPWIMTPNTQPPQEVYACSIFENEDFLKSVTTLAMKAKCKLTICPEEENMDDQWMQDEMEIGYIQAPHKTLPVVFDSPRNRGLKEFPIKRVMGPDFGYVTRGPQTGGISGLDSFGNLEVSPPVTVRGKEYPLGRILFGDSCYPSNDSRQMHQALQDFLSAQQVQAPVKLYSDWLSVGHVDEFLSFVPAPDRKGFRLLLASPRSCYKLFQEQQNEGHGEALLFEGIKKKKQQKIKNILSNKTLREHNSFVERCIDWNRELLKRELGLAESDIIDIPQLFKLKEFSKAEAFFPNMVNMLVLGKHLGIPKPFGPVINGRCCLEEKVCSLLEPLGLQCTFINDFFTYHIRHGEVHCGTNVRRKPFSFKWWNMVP
# Sequence of UniProt P35372 (whole entry, looked up): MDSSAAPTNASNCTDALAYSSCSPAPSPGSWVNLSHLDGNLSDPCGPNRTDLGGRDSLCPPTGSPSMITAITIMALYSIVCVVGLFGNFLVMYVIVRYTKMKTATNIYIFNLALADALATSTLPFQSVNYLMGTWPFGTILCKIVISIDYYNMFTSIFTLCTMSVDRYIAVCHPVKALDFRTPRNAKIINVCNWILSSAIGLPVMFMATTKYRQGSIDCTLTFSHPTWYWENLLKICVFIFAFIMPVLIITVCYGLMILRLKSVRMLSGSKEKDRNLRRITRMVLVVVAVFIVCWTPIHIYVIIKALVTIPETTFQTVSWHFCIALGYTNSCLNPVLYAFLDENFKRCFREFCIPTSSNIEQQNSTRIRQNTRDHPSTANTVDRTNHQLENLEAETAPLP
# Sequence of UniProt Q704Y3 (whole entry, unmodified, looked up): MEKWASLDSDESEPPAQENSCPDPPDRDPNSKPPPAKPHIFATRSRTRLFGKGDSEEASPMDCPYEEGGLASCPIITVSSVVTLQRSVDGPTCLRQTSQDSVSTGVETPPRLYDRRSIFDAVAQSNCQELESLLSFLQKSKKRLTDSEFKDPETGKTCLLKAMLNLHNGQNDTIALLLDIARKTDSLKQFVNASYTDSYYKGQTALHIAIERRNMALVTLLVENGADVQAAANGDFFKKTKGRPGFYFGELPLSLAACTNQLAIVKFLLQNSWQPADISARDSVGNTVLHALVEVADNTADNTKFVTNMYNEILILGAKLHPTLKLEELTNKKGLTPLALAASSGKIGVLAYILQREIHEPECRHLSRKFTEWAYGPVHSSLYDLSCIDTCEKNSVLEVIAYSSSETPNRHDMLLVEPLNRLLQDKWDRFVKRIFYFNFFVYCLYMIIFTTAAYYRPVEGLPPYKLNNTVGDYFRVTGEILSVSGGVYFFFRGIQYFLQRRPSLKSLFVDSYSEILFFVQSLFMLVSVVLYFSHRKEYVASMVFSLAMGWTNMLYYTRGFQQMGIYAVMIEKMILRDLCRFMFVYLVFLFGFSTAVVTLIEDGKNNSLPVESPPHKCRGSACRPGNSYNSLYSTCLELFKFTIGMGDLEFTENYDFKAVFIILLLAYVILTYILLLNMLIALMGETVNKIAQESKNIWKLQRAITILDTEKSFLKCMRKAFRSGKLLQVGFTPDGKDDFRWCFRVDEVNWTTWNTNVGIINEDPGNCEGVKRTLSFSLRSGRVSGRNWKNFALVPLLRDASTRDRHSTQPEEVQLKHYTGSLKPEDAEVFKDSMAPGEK
# Sequence of UniProt O14920 (whole entry, looked up): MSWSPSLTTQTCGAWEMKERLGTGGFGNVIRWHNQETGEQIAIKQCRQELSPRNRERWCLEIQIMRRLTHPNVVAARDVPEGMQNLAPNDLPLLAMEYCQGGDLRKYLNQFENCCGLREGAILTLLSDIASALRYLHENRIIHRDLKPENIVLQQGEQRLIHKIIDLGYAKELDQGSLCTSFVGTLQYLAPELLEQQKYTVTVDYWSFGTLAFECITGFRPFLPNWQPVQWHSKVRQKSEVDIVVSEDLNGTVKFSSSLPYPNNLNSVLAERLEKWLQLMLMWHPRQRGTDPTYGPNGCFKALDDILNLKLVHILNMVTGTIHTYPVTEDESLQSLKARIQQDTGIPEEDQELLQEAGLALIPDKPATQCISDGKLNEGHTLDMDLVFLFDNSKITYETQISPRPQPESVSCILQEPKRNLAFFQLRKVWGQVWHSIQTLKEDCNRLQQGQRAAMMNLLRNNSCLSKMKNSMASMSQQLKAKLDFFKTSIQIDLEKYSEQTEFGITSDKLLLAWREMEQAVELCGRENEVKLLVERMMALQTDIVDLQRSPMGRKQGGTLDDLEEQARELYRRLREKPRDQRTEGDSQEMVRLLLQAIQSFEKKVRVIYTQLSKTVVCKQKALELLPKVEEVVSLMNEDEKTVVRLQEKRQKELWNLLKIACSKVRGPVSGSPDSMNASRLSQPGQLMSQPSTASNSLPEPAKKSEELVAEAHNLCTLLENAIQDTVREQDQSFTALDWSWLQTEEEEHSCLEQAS
# Sequence of UniProt Q13976 (whole entry, looked up): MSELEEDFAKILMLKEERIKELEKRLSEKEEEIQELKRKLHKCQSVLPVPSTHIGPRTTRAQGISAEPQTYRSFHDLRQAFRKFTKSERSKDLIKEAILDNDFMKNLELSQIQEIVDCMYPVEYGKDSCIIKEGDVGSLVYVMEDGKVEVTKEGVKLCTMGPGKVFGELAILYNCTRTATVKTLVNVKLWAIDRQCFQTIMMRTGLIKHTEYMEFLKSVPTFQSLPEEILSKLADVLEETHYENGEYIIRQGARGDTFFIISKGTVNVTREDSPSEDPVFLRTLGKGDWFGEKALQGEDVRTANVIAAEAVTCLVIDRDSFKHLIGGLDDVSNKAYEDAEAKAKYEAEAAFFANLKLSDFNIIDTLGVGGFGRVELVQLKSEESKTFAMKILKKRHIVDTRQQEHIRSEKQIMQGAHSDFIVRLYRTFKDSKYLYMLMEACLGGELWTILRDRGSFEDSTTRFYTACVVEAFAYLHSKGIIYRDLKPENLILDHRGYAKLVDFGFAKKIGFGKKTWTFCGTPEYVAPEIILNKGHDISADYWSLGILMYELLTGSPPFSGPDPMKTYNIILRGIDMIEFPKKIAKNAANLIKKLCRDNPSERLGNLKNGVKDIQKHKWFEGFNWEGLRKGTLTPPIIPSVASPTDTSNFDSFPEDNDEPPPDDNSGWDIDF
# Sequence of UniProt P53778 (whole entry, looked up): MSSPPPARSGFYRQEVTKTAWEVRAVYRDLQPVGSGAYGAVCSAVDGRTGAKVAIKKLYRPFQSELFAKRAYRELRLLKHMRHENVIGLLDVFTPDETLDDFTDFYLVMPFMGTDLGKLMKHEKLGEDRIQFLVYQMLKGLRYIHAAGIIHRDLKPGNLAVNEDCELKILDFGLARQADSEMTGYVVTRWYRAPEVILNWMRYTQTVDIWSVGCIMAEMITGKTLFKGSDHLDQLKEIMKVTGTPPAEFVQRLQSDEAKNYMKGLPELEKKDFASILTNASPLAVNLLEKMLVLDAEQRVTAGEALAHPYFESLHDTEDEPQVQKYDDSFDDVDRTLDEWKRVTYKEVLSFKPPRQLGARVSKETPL
# Sequence of UniProt P35348 (whole entry, looked up): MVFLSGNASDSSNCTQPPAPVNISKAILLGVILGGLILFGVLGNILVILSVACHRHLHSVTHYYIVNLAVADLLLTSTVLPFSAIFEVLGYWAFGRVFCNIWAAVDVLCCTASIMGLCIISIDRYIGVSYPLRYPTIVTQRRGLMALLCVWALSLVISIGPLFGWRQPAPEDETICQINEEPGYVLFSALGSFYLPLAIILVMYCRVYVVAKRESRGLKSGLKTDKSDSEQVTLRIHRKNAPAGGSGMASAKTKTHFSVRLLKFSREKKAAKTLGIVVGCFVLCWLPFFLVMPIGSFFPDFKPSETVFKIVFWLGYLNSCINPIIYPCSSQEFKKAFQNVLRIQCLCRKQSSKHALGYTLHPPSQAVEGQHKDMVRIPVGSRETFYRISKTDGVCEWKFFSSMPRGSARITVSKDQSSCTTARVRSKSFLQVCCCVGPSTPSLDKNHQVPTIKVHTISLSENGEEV
SMILES,target,assay,system,conditions,scale,quantity,result
CCCCC/C=C\C/C=C\C/C=C\C/C=C\CCCC(=O)NCCc1ccc(O)c(O)c1,"Transient receptor potential cation channel subfamily V member 1 (Trpv1, Mus musculus, UniProt Q704Y3, N552Q)","ion current, agonist, whole-cell patch clamp",,N552Q,,Hill coefficient,1.61 ± 0.38
O=C1NC(=O)c2c1c1cc(F)c[n+]3c1c1c2c2cc(O)ccc2[n]1[Ru-4]312([N]=C=S)[S+]3CC[S+]1CC[S+]2CC3 (stereo not drawn),"cGMP-dependent protein kinase 1 (PRKG1, Homo sapiens, UniProt Q13976)",enzyme activity,,"100 nM, human enzyme, added: 10 µM ATP",relative to: untreated,remaining activity,10%
CN(C)[C@H](CNC(=O)/C=C/c1cccc2ccccc12)Cc1ccc(O)cc1,"Mu-type opioid receptor (OPRM1, Homo sapiens, UniProt P35372)","β-arrestin recruitment, agonist",HEK-293T,,,Emax,< 5%
CN(C)[C@H]1C[C@@]23CC[C@@]4(O2)C(=CC[C@]2(C)[C@@H](c5ccc6ccncc6c5)CC[C@H]24)C=C3[C@@H](O)[C@@H]1O,"Inhibitor of nuclear factor kappa-B kinase subunit beta (IKBKB, Homo sapiens, UniProt O14920)","ATP probe labelling, inhibitor, KiNativ profiling",,1 µM,,inhibition,-8.1%
CC(C)[C@H]1NC(=O)C[C@H]2/C=C/CCSSC[C@@H](NC1=O)C(=O)N[C@H](Cc1cccc3ccccc13)C(=O)NCC(=O)O2,"Mitogen-activated protein kinase 12 (MAPK12, Homo sapiens, UniProt P53778)","enzyme activity, inhibitor",,10 µM,,inhibition,1.5%
CC[C@H](C)[C@@H]1NC(=O)[C@H](CC(N)=O)NC(=O)[C@@H]2CCCN2C(=O)[C@@H](NC(=O)[C@H](CC(N)=O)NC(=O)[C@@H](N)CCC(N)=O)COC(=O)[C@H](CCSC)NC(=O)[C@H](Cc2c[nH]c3ccccc23)NC(=O)[C@H](CCC(N)=O)NC(=O)CNC(=O)CN(Cc2ccccc2)C1=O,"Fsr quorum sensing protein (Enterococcus faecalis, UniProt A0ACD6TCR9)","reporter gene, agonist",,,relative to: compound over native peptide,EC50 ratio,> 100 fold
C#CCCCCOc1ccc2c(c1)CCCN2C(=O)CCl,"Hydroxymethylglutaryl-CoA lyase, mitochondrial (HMGCL, Homo sapiens, UniProt P35914)","mass spectrometry profiling, item: HMGCL",H460 cell lysate,"100 µM over 10 µM, UniProt P35914",relative to: high over low concentration,reactivity ratio,1.57
N[C@H](C(=O)N1CCCC1)C1CCN(c2nccc3c(-c4ncc(Cl)cc4Cl)cccc23)CC1,"Protein-arginine deiminase type-4 (PADI4, Homo sapiens, UniProt Q9UM07)",enzyme activity,,"0.006291 µM, low-affinity site, added: Ca2+ 0.25 mM",,kcat,0.96 s⁻¹ and 0.98 s⁻¹
Cc1cc(-c2ccc3ccccc3c2)nnc1NCCN1CCN(C)CC1,"Alpha-1A adrenergic receptor (ADRA1A, Homo sapiens, UniProt P35348)",antagonist,,10000 nM,relative to: control,activity,3%
CS(C)(=O)=Nc1ccc(-c2ccc(-c3nc4cc(O[C@@H]5CO[C@H]6[C@@H]5OC[C@H]6O)[nH]c4cc3F)cc2)cc1,"ALK tyrosine kinase receptor (ALK, Homo sapiens, UniProt Q9UM73)","enzyme activity, inhibitor",,10 µM,,inhibition,2%
CC(C)CC(O)(CC(C)C)c1cn(C(=O)N2CCCC2)nn1,"Neutral cholesterol ester hydrolase 1 (Mus musculus, UniProt Q8BLF1)","probe labelling, inhibitor, competitive ABPP-SILAC, item: Aadacl1",mouse T cells,"concentration not given, 4 h, single peptide","relative to: treated over DMSO cells, lower = stronger inhibition",SILAC activity ratio,1.18 and 1.29 and 1.13 and 1.16 and 1.26 and 1.24
C=CC(=O)Nc1cc(-c2ccc(C(=O)N3CCCC(O)(CC)C3)cc2)ccc1F (stereo not drawn),"DNA dC->dU-editing enzyme APOBEC-3B, C-terminal domain (Homo sapiens, UniProt Q9UH17)","covalent adduct, intact protein MS, item: mass +397 Da adduct of 25735 Da",,"125 µM, 1 h, 5-fold molar excess",,adducted protein,11% and 14%

# Some of these lines once more:
SMILES,target,assay,system,conditions,scale,quantity,result
CS(C)(=O)=Nc1ccc(-c2ccc(-c3nc4cc(O[C@@H]5CO[C@H]6[C@@H]5OC[C@H]6O)[nH]c4cc3F)cc2)cc1,"ALK tyrosine kinase receptor (ALK, Homo sapiens, UniProt Q9UM73)","enzyme activity, inhibitor",,10 µM,,inhibition,2%
